# Measurements of several laboratories.
# Lines come from different studies, so protocols differ. Values joined by “and” are separate records of one study, mostly repeats; a detail may differ. ± marks the error that the study gave.
Compound,target or system,test,test system,setting,scale,measurement,result
CCOC(=O)C1(Cc2ccccc2)Oc2cc(OC)ccc2N(Cc2ccccc2)C1=O (stereo not drawn),Arabidopsis thaliana,"root length, petri dish germination","Col-0, 1/2 MS medium","50 µg/mL, 7 days, 22 °C, dark",,inhibition,32.5%
O=S(=O)(c1ccc(-c2ccc3ncnc(Nc4ccc(OCc5ccc(C(F)(F)F)c(F)c5)c(Cl)c4)c3c2)cc1)N1CCOCC1,Plasmodium falciparum,"parasite growth, SYBR Green fluorescence","C235 (TM91C235), drug-resistant",,,EC50,640 nM
CCOC(=O)C1(Cc2ccc(F)cc2)Oc2cc(F)ccc2N(Cc2ccc(F)cc2)C1=O (stereo not drawn),Arabidopsis thaliana,"stem length, petri dish germination","Col-0, 1/2 MS medium","50 µg/mL, 7 days, 22 °C, dark",,inhibition,22.9%
CCC1(CC)CC(=O)N(C2CCOc3ccc(C(=O)NC4CC(C)(C)Oc5ccccc54)cc32)C(=N)N1 (stereo not drawn),Plasmodium falciparum,parasite growth,K1,,,EC50,0.4 ± 0.2 nM
O=NC1=C(c2cccc([N+](=O)[O-])c2)Nc2ccccc2S1,HIV-1 subtype C,viral replication,,96 h,,IC50,93600 nM
CCOC(=O)C1(Cc2cccc(C(C)C)c2)Oc2cc(F)ccc2N(Cc2cccc(C(C)C)c2)C1=O (stereo not drawn),Arabidopsis thaliana,"stem length, petri dish germination","Col-0, 1/2 MS medium","50 µg/mL, 7 days, 22 °C, dark",,inhibition,17.8%
C[N+]1=C2C(c3ccc(Cl)cc3)=[N+]([O-])c3ccccc3N2CCC1,Fusobacterium nucleatum,microbial growth,,,,MIC50,4 µg/mL
CCOC(=O)C1(Cc2cccc(C)c2)Oc2cc(F)ccc2N(Cc2cccc(C)c2)C1=O (stereo not drawn),Arabidopsis thaliana,"root length, petri dish germination","Col-0, 1/2 MS medium","50 µg/mL, 7 days, 22 °C, dark",,inhibition,52%
CC(=O)c1c(O)c(C)c(O)c2c1OC1=CC(=O)C(=C(C)NCCCC(=O)OC3OC4OC5(C)CCC6C(C)CCC(C3C)C46OO5)C(=O)C12C (stereo not drawn),Plasmodium berghei,,"ANKA GFP, NMRI mouse","oral, 4 x 100 mg/kg, day 4 post infection",,parasitaemia inhibition,99.4%
CC(C)C[C@H](NC(=O)[C@H](CC(C)C)NC(=O)[C@H](CCCCN)NC(=O)[C@H](Cc1ccccc1)NC(=O)[C@@H](NC(=O)[C@H](CCCNC(=N)N)NC(=O)[C@@H](N)CCCCN)C(C)C)C(=O)N[C@@H](CCCCN)C(=O)N[C@@H](CCCNC(=N)N)C(=O)N[C@@H](Cc1ccc(O)cc1)C(=O)N[C@@H](Cc1c[nH]c2ccccc12)C(=O)N[C@@H](CCCNC(=N)N)C(=O)N[C@@H](CCC(N)=O)C(=O)N[C@@H](CC(C)C)C(=O)N[C@@H](CCCCN)C(=O)N[C@@H](CCCCN)C(=O)N1CCC[C@H]1C(=O)N[C@H](C(=O)N[C@@H](CCCNC(=N)N)C(=O)NCCOCCOCC(=O)O)C(C)C,Pseudomonas aeruginosa and Staphylococcus aureus,confocal microscopy,mixed biofilm,"10 µM, 6 h, biofilm, pre-formed, 24 h",,eDNA content reduction,95.2%
C[C@H](NC(=O)[C@@H](O)c1cc(F)cc(F)c1)C(=O)N[C@@H]1C(=O)N(C)c2ccccc2-c2ccccc21,dengue virus 2,"viral infection, luciferase reporter virus",,"100 nM, 48 h",,inhibition,99.9%
C=CCN1C(=O)C(CC=C)(C(=O)OCC)Oc2cc(F)ccc21 (stereo not drawn),Arabidopsis thaliana,,"Col-0, seed germination, dark","200 µg/mL, 7 days, 22 °C",,root length inhibition,100%
Cc1cc(C(=O)Nc2nc3cccc(C)c3n2[C@H]2CCCCN(C(=O)/C=C/CN(C)C)C2)ccn1,Trypanosoma brucei brucei,,2T1 CLK1 overexpressing,"0.1563 µM, DMSO pretreated",reference: maximum,survival,66.8% and 63.9% and 56% and 62.2%
[2H]C([2H])([2H])n1cnc(Cn2c(=O)[nH]/c(=N\c3cc4cn(C)nc4cc3Cl)n(Cc3cc(F)c(F)cc3F)c2=O)n1,Betacoronavirus 1,"viral replication, qPCR","OC43, human",,,IC50,270 nM
CC[C@H](C)CCCCC(=O)N[C@@H](CCN)C(=O)N[C@H](C(=O)N[C@@H](CCN)C(=O)N[C@H]1CCNC(=O)[C@H]([C@@H](C)O)NC(=O)[C@H](CCN)NC(=O)[C@H](CCN)NC(=O)[C@H](CC(C)C)NC(=O)[C@@H](CC(C)C)NC(=O)[C@H](CCN)NC1=O)[C@@H](C)O,Escherichia coli,daily serial passaging,ATCC 8739,"highest sub-MIC, 42 days",reference: initial MIC,MIC fold change,3.16
CCCCCCCC(=O)NCCCC[C@H](NC(=O)CCCCCCC)C(=O)N[C@@H](CCCCNC(=O)CCCCCCC)C(=O)NCC(=O)NCC(=O)NCC(=O)N[C@@H](CS)C(=O)N[C@@H](CCCNC(=N)N)C(=O)N[C@@H](CCCCN)C(=O)N1CCC[C@H]1C(=O)N[C@@H](CS)C(=O)N[C@@H](CCCNC(=N)N)C(=O)N[C@@H](CCCCN)C(=O)N1CCC[C@H]1C(=O)N[C@@H](CS)C(=O)N[C@@H](CCCNC(=N)N)C(=O)N[C@@H](CCCCN)C(=O)N1CCC[C@H]1C(=O)N[C@@H](CS)C(=O)N[C@@H](CCCNC(=N)N)C(=O)N[C@@H](CCCCN)C(=O)N1CCC[C@H]1C(N)=O,Candida albicans,broth microdilution,"SP 3903, RPMI-1640","48 h, 30 °C",,MIC,16 µM
CCOC(=O)C1(Cc2ccccc2)Oc2cc(F)ccc2N(Cc2ccccc2)C1=O (stereo not drawn),Arabidopsis thaliana,,"Col-0, seed germination, dark","200 µg/mL, 7 days, 22 °C",,stem length inhibition,47.2%
CCc1nn(C)c2nc(-c3ccc(C(=O)O)cc3)nc(NCc3ccccc3)c12,Cryptosporidium parvum,,HCT-8,"9 x EC90, 6 h",reference: DMSO control,parasite number,96.4% and 68.2% and 98.1% and 131%
CCOC(=O)C1(Cc2ccc(OC)cc2)Oc2cc(F)ccc2N(Cc2ccc(OC)cc2)C1=O (stereo not drawn),Arabidopsis thaliana,"stem length, petri dish germination","Col-0, 1/2 MS medium","50 µg/mL, 7 days, 22 °C, dark",,inhibition,38.5%
CN(C)c1cccc(-c2ccc3ncnc(Nc4ccc(OCc5cccc(F)c5)c(Cl)c4)c3c2)c1,Plasmodium falciparum,"parasite growth, SYBR Green fluorescence","W2, drug-resistant",,,EC50,1400 nM
CC1(C)Cc2sc(NC(=O)Cc3ccc(S(N)(=O)=O)cc3)c(C#N)c2CN1CC1CCCCC1,Dengue virus 2,viral replication,P15-S10 passaged with DMSO,,,EC50,14.2 nM and 13.8 nM
O=C(c1ccc(-c2ccc3ncnc(Nc4ccc(OCc5cccc(F)c5)c(Cl)c4)c3c2)cc1)N1CCCCC1,Plasmodium falciparum,"parasite growth, SYBR Green",D6,blood stage,,EC50,250 nM
FC(F)(F)c1cccc(CNc2nc(NC3CCN(Cc4ccccc4)CC3)c3nc[nH]c3n2)c1,Cryptococcus neoformans,"RNA-seq, refers to: CNAG_03277",,"48 µg/mL, 3 h",reference: untreated,mRNA fold change,1.5
O=C1NC2(CC2)COc2ncc(F)cc2[C@H]2COCCN2c2ccn3ncc1c3n2,,,"Sprague-Dawley rat, male, epididymides","oral, 2.5 mg/kg/day, end of recovery, 4-week repeated-dose toxicity",,epididymis weight,1.42 ± 0.147 g
Cc1ccc(N2CC3CC(C2)N3C)cc1C(=O)NC1(c2ccc3c4c(cccc24)C(=O)N3C)CC1,Betacoronavirus 1,viral replication,"Huh-7, OC43",3 µM,,inhibition,0%
CN(C)c1nc(NCc2cccc(-c3ccccc3)c2)c(/N=N/c2ccc(Cl)cc2)c(N(C)C)n1,Plutella xylostella,leaf dipping,,"200 mg/L, 96 h",,mortality,90 ± 6.7%
COc1ccc(C2=[N+]([O-])c3ccccc3N3CC(C)(C)CN=C23)cc1,Fusobacterium nucleatum,microbial growth,,,,MIC50,0.25 µg/mL
CC(C)[C@H]1NC(=O)[C@H](Cc2ccccc2)NC(=O)[C@@H](C(C)C)NC(=O)[C@@H](C)NC(=O)[C@H](CO)NC(=O)[C@@H](Cc2c(-c3ccc(-c4ccc5ccccc5c4)cc3)[nH]c3ccccc23)NC(=O)[C@@H](C)NC1=O,Candida albicans,broth dilution,,,,MIC90,> 50 µM
Fc1cccc(COc2ccc(Nc3ncnc4ccc(-c5ccc(N6CCOCC6)cc5)cc34)cc2Cl)c1,Plasmodium falciparum,"parasite growth, SYBR Green fluorescence","W2, drug-resistant",,,EC50,1100 nM
CC(=O)c1c(O)c(C)c(O)c2c1OC1=CC(=O)C(=C(C)NCCCCOC3OC4OC5(C)CCC6C(C)CCC(C3C)C46OO5)C(=O)C12C (mixture of isomers),Plasmodium berghei,,"ANKA GFP, mouse NMRI","intraperitoneal, 4 × 50 mg/kg",,mean survival time,5.3 days
O=S(=O)(c1cccc(-c2ccc3ncnc(Nc4ccc(OCc5cccc(F)c5)c(Cl)c4)c3c2)c1)N1CCOCC1,Plasmodium falciparum,"parasite growth, SYBR Green fluorescence","C235 (TM91C235), drug-resistant",,,EC50,290 nM
C[C@H]1[C@H](OC(=O)CCC(=O)OCc2cn(-c3cc4ccc(O)cc4oc3=O)nn2)O[C@@H]2O[C@@]3(C)CC[C@H]4[C@H](C)CC[C@@H]1[C@@]24OO3,Plasmodium berghei,,"NK65/GFP, mouse","subcutaneous, 22 µmol/kg daily for four days",,cure rate,0%
CCOC(=O)C1(Cc2c(F)cccc2F)Oc2cc(F)ccc2N(Cc2c(F)cccc2F)C1=O (stereo not drawn),Arabidopsis thaliana,"stem length, petri dish germination","Col-0, 1/2 MS medium","50 µg/mL, 7 days, 22 °C, dark",,inhibition,42.9%
Fc1cccc(COc2ccc(Nc3ncnc4ccc(-c5ccc(CN6CCOCC6)cc5)cc34)cc2Cl)c1,Plasmodium falciparum,"parasite growth, SYBR Green",D6,blood stage,,EC50,64 nM
CCCCCC[C@H]1C(=O)O[C@H](C)[C@H](NC(=O)c2cccc(NC=O)c2O)C(=O)O[C@@H](C)[C@@H]1OC(=O)CC(C)C,Bovine alphaherpesvirus 1,viral replication,bovine epithelial cells,,,IC50,77 nM
O=C(c1cccc(-c2ccc3ncnc(Nc4ccc(OCc5cccc(F)c5)c(Cl)c4)c3c2)c1)N1CCCC1,Plasmodium falciparum,"parasite growth, SYBR Green",D6,blood stage,,EC50,69 nM
CCCCCC(=O)NCCCC[C@H](NC(=O)CCCCC)C(=O)N[C@@H](CCCCNC(=O)CCCCC)C(=O)NCC(=O)NCC(=O)NCC(=O)N[C@@H](CS)C(=O)N[C@@H](CCCNC(=N)N)C(=O)N[C@@H](CCCCN)C(=O)N1CCC[C@H]1C(=O)N[C@@H](CS)C(=O)N[C@@H](CCCNC(=N)N)C(=O)N[C@@H](CCCCN)C(=O)N1CCC[C@H]1C(N)=O,Candida albicans,broth microdilution,"17546, RPMI-1640","48 h, 30 °C",,MIC,16 µM
O=C(c1cccc(-c2ccc3ncnc(Nc4ccc(OCc5cccc(F)c5)c(Cl)c4)c3c2)c1)N1CCCCC1,Plasmodium falciparum,"parasite growth, SYBR Green fluorescence","W2, drug-resistant",,,EC50,840 nM
CN(CCO)CCO.O=C(O)C(Cl)Cl,Xanthium sibiricum,,,"15 mg/mL, 21 days, pre-emergence, greenhouse",,herbicidal inhibition,0%
